Assay results from different studies.
Lines come from different studies, so protocols differ.

CC(C)C[C@@H]1NC(=O)[C@@H](Cc2ccccc2)NC(=O)[C@H](CCN)NC(=O)[C@@H](NC(=O)[C@H](CCN)NC(=O)[C@@H](N)[C@@H](C)O)CCNC(=O)[C@H]([C@@H](C)O)NC(=O)[C@H](CCN)NC(=O)[C@H](CCN)NC1=O  MIC (Escherichia coli; MIC of compound in combination, checkerboard; W3110; concentration not given, together with: rifampicin): 6.25 µg/mL
CC1(C)S[C@@H]2[C@H](NC(=O)[C@H](N)c3ccccc3)C(=O)N2[C@H]1C(=O)O  MIC (Pseudomonas aeruginosa; clinical isolate RKI-No_493/15): > 16 µg/mL
C[C@@H](c1ncncc1F)[C@](O)(Cn1cncn1)c1ccc(F)cc1F  MIC (Blastomyces dermatitidis; BD-1): 0.06 µg/mL
N=C(N)c1cccc(OCc2ccc(COc3cccc(C(=N)N)c3)cc2)c1  MIC (Escherichia coli; mcr-3 polymyxin-resistant; compound alone): > 200 µg/mL
C=CC(=O)ON=C1C=CC(=C(C#N)c2ccccc2)C=C1  MIC (Clavispora lusitaniae; broth dilution; ATCC 34449; 48 h, 37 °C): 64 µg/mL
CC1(C)S[C@@H]2[C@H](NC(=O)[C@H](N)c3ccc(O)cc3)C(=O)N2[C@H]1C(=O)O  MIC (Serratia marcescens; broth microdilution; MTCC 4301): 8 µg/mL
CCCCCCCCCC(=O)N[C@@H](Cc1c[nH]c2ccccc12)C(=O)N[C@H](CC(N)=O)C(=O)N[C@@H](CC(=O)O)C(=O)N[C@@H]1C(=O)NCC(=O)N[C@@H](CCCN)C(=O)N[C@@H](CC(=O)O)C(=O)N[C@H](C)C(=O)N[C@@H](CC(=O)O)C(=O)NCC(=O)N[C@H](CO)C(=O)N[C@@H]([C@H](C)CC(=O)O)C(=O)N[C@@H](CC(=O)c2ccccc2N)C(=O)O[C@@H]1C  MIC (Staphylococcus aureus; broth microdilution; MRSA USA300, Mueller-Hinton broth, Mg2+ 10 mg/L; 16 h, 37 °C, together with: Ca2+ 2.5 mM): 0.25 µg/mL
CCON=C1C=CC(=C(C#N)c2ccccc2)C=C1  MIC (Clavispora lusitaniae; broth dilution; ATCC 34449; 48 h, 37 °C): 256 µg/mL
Cc1ccc(C(C)C)c(OC2=C(Cl)C(=O)c3ccccc3C2=O)c1  MIC (Serratia marcescens; broth microdilution; MTCC 4301): 10 µg/mL
NC[C@H]1O[C@H](O[C@H]2[C@H](O)[C@@H](O[C@H]3O[C@H](CO)[C@@H](O)[C@H](N)[C@H]3O)[C@H](N)C[C@@H]2N)[C@H](O)[C@@H](O)[C@@H]1O  MIC (Vibrio alginolyticus; broth dilution; 24 h): 20 to 40 µM
CCCCCCC#Cc1cncc(-c2nnc(SCc3ccc(C#N)cc3)n2C)c1  MIC (Mycolicibacterium smegmatis; no activity below value): ≥ 100 µM
CC(=O)NC[C@H]1CN(c2ccc(N3CCOCC3)c(F)c2)C(=O)O1  MIC (Lactobacillus gasseri; ATCC 19992): 5.93 µM
CNC(C)C1CCC(N)C(OC2C(N)CC(N)C(OC3OCC(C)(O)C(NC)C3O)C2O)O1 (stereo not shown)  MIC (Pseudomonas aeruginosa; clinical isolate RKI-No_484/15): > 8 µg/mL
CC1(C)SC2C(NC(=O)C(NC(=O)C3=C(O)C(Cc4ccc(F)cc4)NC3=O)c3ccccc3)C(=O)N2C1C(=O)O (stereo not shown)  MIC (Escherichia coli; broth microdilution; ATCC 25922 wild type; together with: clavulanic acid 6 µg/mL): 12.5 µg/mL
N=C(N)c1ccc(OCc2ccc(-c3ccccc3)cc2COc2ccc(C(=N)N)cc2)cc1  MIC (Escherichia coli; 552100; in combination, checkerboard, together with: rifampicin): 6.25 µg/mL
N#CC(=C1C=CC(=NOC(=O)c2ccccc2)C=C1)c1ccccc1  MIC (Clavispora lusitaniae; broth dilution; ATCC 34449; 48 h, 37 °C): 128 µg/mL

Excerpt of the above:
N=C(N)c1ccc(OCc2ccc(-c3ccccc3)cc2COc2ccc(C(=N)N)cc2)cc1  MIC (Escherichia coli; 552100; in combination, checkerboard, together with: rifampicin): 6.25 µg/mL
CC1(C)SC2C(NC(=O)C(NC(=O)C3=C(O)C(Cc4ccc(F)cc4)NC3=O)c3ccccc3)C(=O)N2C1C(=O)O (stereo not shown)  MIC (Escherichia coli; broth microdilution; ATCC 25922 wild type; together with: clavulanic acid 6 µg/mL): 12.5 µg/mL
